Measured values pooled from the literature.
Parts stem from different laboratories: compare values within a part only. Several values in a cell are separate wells, animals, samples, runs or records.
Chain of UniProt Q13557 (whole entry, looked up): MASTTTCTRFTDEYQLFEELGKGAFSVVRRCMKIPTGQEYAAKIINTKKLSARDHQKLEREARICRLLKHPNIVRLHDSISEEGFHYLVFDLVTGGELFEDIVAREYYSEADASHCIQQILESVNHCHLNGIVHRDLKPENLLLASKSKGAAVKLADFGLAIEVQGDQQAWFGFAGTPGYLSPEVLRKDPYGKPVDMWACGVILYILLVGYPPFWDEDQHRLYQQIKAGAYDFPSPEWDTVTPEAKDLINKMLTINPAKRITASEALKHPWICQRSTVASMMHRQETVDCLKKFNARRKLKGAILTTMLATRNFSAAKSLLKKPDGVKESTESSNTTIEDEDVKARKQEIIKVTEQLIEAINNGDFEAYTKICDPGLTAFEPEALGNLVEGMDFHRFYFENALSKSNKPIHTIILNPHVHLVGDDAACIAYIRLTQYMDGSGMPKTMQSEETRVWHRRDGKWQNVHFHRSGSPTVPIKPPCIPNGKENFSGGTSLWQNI
Chain of UniProt Q9UIK4 (whole entry, looked up): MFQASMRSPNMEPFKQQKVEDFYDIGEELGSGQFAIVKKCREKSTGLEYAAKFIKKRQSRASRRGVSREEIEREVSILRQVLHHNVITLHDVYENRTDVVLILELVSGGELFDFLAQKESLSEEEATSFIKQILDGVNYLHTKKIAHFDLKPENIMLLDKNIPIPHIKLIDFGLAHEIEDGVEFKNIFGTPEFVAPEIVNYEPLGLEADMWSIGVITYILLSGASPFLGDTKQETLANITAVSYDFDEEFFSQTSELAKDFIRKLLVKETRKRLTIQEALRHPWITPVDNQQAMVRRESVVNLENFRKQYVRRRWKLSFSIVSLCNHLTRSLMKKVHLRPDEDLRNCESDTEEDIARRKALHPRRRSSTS
Chain of UniProt Q99759 (whole entry, looked up): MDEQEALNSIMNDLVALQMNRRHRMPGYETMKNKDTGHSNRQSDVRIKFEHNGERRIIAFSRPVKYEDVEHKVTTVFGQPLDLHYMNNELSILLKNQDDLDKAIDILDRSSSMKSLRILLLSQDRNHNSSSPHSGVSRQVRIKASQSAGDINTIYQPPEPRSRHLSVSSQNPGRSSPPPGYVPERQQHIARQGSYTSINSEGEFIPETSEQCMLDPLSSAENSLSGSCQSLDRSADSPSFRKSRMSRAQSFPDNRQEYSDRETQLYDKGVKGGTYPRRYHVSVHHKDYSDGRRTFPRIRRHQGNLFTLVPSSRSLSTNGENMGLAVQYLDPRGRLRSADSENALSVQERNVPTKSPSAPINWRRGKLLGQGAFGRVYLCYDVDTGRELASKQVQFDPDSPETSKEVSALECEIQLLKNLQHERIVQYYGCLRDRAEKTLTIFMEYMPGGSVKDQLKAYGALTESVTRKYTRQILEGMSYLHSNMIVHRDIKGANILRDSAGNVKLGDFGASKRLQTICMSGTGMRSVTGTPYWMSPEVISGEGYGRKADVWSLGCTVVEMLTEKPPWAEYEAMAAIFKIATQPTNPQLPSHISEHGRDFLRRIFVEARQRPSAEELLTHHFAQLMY
Chain of UniProt P51955 (whole entry, looked up): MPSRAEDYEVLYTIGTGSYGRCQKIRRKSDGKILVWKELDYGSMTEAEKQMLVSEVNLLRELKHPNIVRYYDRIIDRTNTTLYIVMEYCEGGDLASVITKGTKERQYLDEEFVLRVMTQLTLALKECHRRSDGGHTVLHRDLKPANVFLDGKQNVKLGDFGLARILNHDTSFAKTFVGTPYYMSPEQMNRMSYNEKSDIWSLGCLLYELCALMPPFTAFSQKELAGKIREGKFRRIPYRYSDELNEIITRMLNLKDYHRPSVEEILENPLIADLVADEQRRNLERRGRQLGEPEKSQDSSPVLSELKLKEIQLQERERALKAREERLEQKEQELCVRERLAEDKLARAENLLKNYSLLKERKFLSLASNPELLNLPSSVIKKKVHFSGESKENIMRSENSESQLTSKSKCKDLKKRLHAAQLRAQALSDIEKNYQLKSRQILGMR
Chain of UniProt P37173 (whole entry, looked up): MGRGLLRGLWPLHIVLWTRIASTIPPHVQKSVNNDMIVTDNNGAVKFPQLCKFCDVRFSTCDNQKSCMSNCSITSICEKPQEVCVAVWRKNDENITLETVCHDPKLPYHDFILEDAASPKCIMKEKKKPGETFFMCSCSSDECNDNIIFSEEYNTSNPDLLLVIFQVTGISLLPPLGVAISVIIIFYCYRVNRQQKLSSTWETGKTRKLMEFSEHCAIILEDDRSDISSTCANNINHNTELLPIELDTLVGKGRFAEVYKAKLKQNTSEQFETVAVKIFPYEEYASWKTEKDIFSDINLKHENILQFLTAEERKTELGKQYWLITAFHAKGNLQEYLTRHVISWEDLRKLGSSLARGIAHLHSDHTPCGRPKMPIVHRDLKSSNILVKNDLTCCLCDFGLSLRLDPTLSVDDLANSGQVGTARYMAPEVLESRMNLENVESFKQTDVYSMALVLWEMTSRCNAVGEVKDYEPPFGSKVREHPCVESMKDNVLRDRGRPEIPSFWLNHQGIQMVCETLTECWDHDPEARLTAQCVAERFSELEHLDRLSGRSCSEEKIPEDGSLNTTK
Chain of UniProt P51817 (whole entry, looked up): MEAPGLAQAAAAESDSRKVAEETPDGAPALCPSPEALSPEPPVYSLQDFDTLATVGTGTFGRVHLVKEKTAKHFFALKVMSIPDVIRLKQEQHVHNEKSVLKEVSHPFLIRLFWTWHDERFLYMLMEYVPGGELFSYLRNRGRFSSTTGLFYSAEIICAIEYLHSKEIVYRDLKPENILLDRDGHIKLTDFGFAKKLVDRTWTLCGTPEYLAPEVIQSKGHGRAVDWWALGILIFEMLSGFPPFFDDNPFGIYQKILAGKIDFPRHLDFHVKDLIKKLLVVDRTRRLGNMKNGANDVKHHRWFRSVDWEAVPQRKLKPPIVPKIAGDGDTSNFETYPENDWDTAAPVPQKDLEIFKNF
Chain of UniProt P45984 (whole entry, looked up): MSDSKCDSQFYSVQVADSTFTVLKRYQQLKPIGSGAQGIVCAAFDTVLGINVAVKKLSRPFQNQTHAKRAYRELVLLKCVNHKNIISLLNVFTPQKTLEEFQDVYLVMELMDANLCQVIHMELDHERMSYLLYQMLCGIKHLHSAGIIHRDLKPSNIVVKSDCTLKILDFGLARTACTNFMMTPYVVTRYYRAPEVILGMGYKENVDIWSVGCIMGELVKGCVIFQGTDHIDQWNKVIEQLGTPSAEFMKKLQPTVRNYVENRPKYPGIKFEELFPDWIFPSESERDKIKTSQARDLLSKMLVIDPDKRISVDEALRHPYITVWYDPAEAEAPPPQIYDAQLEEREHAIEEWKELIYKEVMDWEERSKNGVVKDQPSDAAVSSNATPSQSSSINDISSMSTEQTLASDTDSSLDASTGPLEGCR
Chain of UniProt Q00535 (whole entry, looked up): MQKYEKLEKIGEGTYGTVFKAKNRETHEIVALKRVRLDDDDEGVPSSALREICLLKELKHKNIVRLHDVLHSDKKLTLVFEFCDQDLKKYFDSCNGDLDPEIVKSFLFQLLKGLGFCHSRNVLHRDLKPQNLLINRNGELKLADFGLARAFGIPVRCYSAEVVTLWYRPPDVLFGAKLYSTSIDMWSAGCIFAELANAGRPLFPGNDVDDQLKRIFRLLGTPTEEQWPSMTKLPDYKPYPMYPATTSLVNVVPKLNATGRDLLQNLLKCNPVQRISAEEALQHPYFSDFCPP
Chain of UniProt P35626 (whole entry, looked up): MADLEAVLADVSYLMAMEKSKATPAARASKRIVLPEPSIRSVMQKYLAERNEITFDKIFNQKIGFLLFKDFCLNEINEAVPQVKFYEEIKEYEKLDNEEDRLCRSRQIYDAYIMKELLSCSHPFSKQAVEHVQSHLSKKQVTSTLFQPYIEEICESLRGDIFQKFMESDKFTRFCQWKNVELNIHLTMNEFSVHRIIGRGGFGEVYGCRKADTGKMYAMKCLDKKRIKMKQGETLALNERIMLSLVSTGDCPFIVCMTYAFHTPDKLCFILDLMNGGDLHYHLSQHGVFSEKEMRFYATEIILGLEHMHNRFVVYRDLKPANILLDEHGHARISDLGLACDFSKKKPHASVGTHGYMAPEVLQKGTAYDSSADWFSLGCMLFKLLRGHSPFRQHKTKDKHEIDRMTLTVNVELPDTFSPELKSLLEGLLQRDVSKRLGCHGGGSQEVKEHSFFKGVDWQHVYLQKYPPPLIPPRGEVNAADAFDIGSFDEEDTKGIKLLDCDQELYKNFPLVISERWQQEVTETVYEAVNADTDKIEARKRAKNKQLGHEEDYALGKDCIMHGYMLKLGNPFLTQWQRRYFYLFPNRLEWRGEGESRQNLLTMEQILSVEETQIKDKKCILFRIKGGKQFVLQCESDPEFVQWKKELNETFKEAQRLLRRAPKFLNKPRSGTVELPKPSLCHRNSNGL

Sample 1
SMILES: C[C@H](c1ccc(F)cc1)N(Cc1cccc(C(=O)O)c1)C(=O)c1cnc2ccccc2c1
Technique: competition with immobilised ligand
Concentration: 1 µM
| target | observed | remaining binding [%] |
| --- | --- | --- |
| ROCK2 (Homo sapiens, UniProt O75116) | cell-free assay | 100 |
| PIP4K2B (Homo sapiens, UniProt P78356) | cell-free assay | 96 |
| CAMK2D (Homo sapiens, UniProt Q13557) | cell-free assay | 100 |
| PRKX (Homo sapiens, UniProt P51817) | cell-free assay | 100 |
| HIPK3 (Homo sapiens, UniProt Q9H422) | cell-free assay | 100 |
| ERBB4 (Homo sapiens, UniProt Q15303) | cell-free assay | 94 |
| NEK4 (Homo sapiens, UniProt P51957) | cell-free assay | 100 |
| CDKL2 (Homo sapiens, UniProt Q92772) | binding | 100 |

Sample 2
Cell line: mouse MPNST tumor cells
Technique: high-content nuclear imaging
Item: cell number
Concentration: 10 µM
Time: 12 h
Notes: mean of 2 replicates
Relative to: plate mean
Reading: higher = more cells
| Compound | nuclei count |
| --- | --- |
| CC(=O)O[C@H]1C(=O)[C@@]2(C)[C@H]([C@H](OC(=O)c3ccccc3)[C@]3(O)C[C@H](OC(=O)[C@H](O)[C@@H](NC(=O)c4ccccc4)c4ccccc4)C(C)=C1C3(C)C)[C@]1(OC(C)=O)CO[C@@H]1C[C@@H]2O | -5.55 z-score and -3.87 z-score |
| CCC(CC)O[C@@H]1C=C(C(=O)O)C[C@H](N)[C@H]1NC(C)=O | 0.627 z-score |
| CCCc1nc(C(C)(C)O)c(C(=O)O)n1Cc1ccc(-c2ccccc2-c2nnn[nH]2)cc1 | -0.573 z-score and 0.595 z-score |
| CO[C@H]1/C=C/O[C@@]2(C)Oc3c(C)c(O)c4c(O)c(c(/C=N/N5CCN(C)CC5)c(O)c4c3C2=O)NC(=O)/C(C)=C\C=C\[C@H](C)[C@H](O)[C@@H](C)[C@@H](O)[C@@H](C)[C@H](OC(C)=O)[C@@H]1C | 2.16 z-score |

Sample 3
Technique: PRP chromatography
Notes: linear fit, 1 mL
| SMILES | logD 1,9-decadiene/water |
| --- | --- |
| CC(C)C[C@@H]1NC(=O)[C@H](C)NC(=O)[C@@H](CCC(=O)N2CCCC2)NC(=O)[C@H](C)NC(=O)[C@H](C)NC(=O)[C@H](CC(C)C)NC(=O)[C@H](CC(C)C)NC1=O | -2.32 log units |
| CC(C)C[C@@H]1NC(=O)[C@@H](C)NC(=O)[C@@H](CC(C)C)NC(=O)[C@@H](CC(C)C)NC(=O)[C@H](C(C)C)NC(=O)[C@H](CC(C)C)NC(=O)[C@@H](CC(C)C)NC1=O | 0.51 log units |
| CC(C)C[C@@H]1NC(=O)[C@H](C(C)C)NC(=O)[C@H](Cc2cscn2)NC(=O)[C@H](CC(C)C)NC(=O)[C@@H](CCC(=O)N2CCCC2)NC(=O)[C@H](CC(C)C)NC(=O)[C@@H](CC(C)C)NC1=O | -1.11 log units |
| CC(C)C[C@@H]1NC(=O)[C@H](C)NC(=O)[C@@H](CC(C)C)NC(=O)[C@H](C(C)C)NC(=O)[C@H](CC(C)C)NC(=O)[C@@H](CC(C)C)NC(=O)[C@H](CC(C)C)NC1=O | 0.746 log units |
| CC(C)C[C@@H]1NC(=O)[C@H](C)NC(=O)[C@H](C)NC(=O)[C@H](CC(C)C)NC(=O)[C@H](C(C)C)NC(=O)[C@H](CC(C)C)NC(=O)[C@@H](CC(C)C)NC1=O | -1.01 log units |
| CC(C)C[C@@H]1NC(=O)[C@H](C)NC(=O)[C@H](C)NC(=O)[C@@H](CC(C)C)NC(=O)[C@H](C)NC(=O)[C@H](CC(C)C)NC(=O)[C@H](CC(C)C)NC1=O | -1.68 log units |
| CC(C)C[C@@H]1NC(=O)[C@H](C)NC(=O)[C@H](C)NC(=O)[C@H](C)NC(=O)[C@H](C(C)C)NC(=O)[C@H](CC(C)C)NC(=O)[C@@H](CC(C)C)NC1=O | -2.3 log units |

Sample 4
Structure (SMILES): O=C1NC(=O)c2c1c1c3ccccc3[nH]c1n1cncc21
Observed: enzyme activity
Mode: inhibitor
Concentration: 0.5 µM
Relative to: control
| target | remaining activity |
| --- | --- |
| TGFBR1 (Homo sapiens, UniProt P36897) | 96.3% |
| IKBKB (Homo sapiens, UniProt O14920) | 95.9% |
| STK10 (Homo sapiens, UniProt O94804) | 69% |
| MAP3K3 (Homo sapiens, UniProt Q99759) | 86.9% |
| PRKCA (Homo sapiens, UniProt P17252) | 66.5% |
| Tyrosine-protein kinase Lyn, isoform B (LYN, Homo sapiens, UniProt P07948) | 96.2% |
| MAPK9 (Homo sapiens, UniProt P45984) | 65.3% |
| CAMK2D (Homo sapiens, UniProt Q13557) | 36.7% |
| GRK3 (Homo sapiens, UniProt P35626) | 109% |
| DAPK1 (Homo sapiens, UniProt P53355) | 26.6% |
| Cyclin-dependent kinase 4, with cyclin D1 (CDK4, Homo sapiens, UniProt P11802) | 86% |
| NEK2 (Homo sapiens, UniProt P51955) | 87.5% |
| STK39 (Homo sapiens, UniProt Q9UEW8) | 104% |
| OXSR1 (Homo sapiens, UniProt O95747) | 97.2% |
| PRKACA (Homo sapiens, UniProt P17612) | 98.2% |
| Protein kinase C beta type, isoform beta-I (PRKCB, Homo sapiens, UniProt P05771) | 95% |
| DAPK2 (Homo sapiens, UniProt Q9UIK4) | 43.8% |
| STK11 (Homo sapiens, UniProt Q15831) | 45.2% |
| TGFBR2 (Homo sapiens, UniProt P37173) | 95.8% |
| IKBKE (Homo sapiens, UniProt Q14164) | 103% |
| cGMP-dependent protein kinase 1, isoform beta (PRKG1, Homo sapiens, UniProt Q13976) | 85.9% |
| Cyclin-dependent kinase 5, with p25 (CDK5, Homo sapiens, UniProt Q00535) | 89.4% |
| CAMKK2 (Homo sapiens, UniProt Q96RR4) | 77.2% |

Sample 5
Cell line: HaCaT
Concentration: 100 µM
Time: 18 h
| SMILES | viability |
| --- | --- |
| CCN(CC)CCNC(=O)c1cc(Cl)c(N)cc1OC | 94.8% |
| Cc1cccc(C)c1OCC(C)N (stereo not shown) | 112% |
| NNc1nnc(NN)c2ccccc12 | 108% |
| CN(C)CCN(Cc1ccc(Cl)cc1)c1ccccn1 | 111% |
| CCOC(=O)CC(=O)N1CCSC1COc1ccccc1OC (stereo not shown) | 99.5% |
| CC(C)N1CCN(c2ccc(OC[C@H]3CO[C@](Cn4cncn4)(c4ccc(Cl)cc4Cl)O3)cc2)CC1 (racemic) | 39.9% |
| CC1CNc2c(cccc2S(=O)(=O)N[C@@H](CCCNC(=N)N)C(=O)N2CC[C@@H](C)C[C@@H]2C(=O)O)C1 (stereo partly shown) | 108% |

Excerpt of the above (sample 4):
| target | remaining activity |
| --- | --- |
| MAP3K3 (Homo sapiens, UniProt Q99759) | 86.9% |
| Cyclin-dependent kinase 5, with p25 (CDK5, Homo sapiens, UniProt Q00535) | 89.4% |
| Cyclin-dependent kinase 4, with cyclin D1 (CDK4, Homo sapiens, UniProt P11802) | 86% |
| PRKACA (Homo sapiens, UniProt P17612) | 98.2% |
